# Experimental data pooled from the literature.
# Compare with care: the assays were run in different laboratories. ± marks the error that the study gave.
Compound,tested on,assay,test system,conditions,how to read,quantity,result
C[C@H](O)[C@@H](NC(=O)[C@H]1CCCN1C(=O)[C@@H](CCCCN)NC(=O)[C@@H](CO)NC(=O)[C@@H](Cc1ccc(O)cc1)NC(=O)[C@@H](CC(N)=O)NC(=O)CCOCCOCCOCCNC(=O)CN1CCN(CC(=O)O)CCN(CC(=O)O)CCN(CC(=O)O)CC1)C(=O)N[C@H](CC(=O)O)C(=O)N[C@H](CCCNC(=N)N)C(=O)N[C@H](CCC(N)=O)C(=O)N[C@H](Cc1ccc(O)cc1)C(=O)N[C@H](Cc1c[nH]cn1)C(=O)N[C@H](Cc1ccccc1)C(N)=O [gallium-68 labelled],,,"BALB/c nude mice U-87 MG tumour, spleen","intravenous, 1.85 MBq, 1 h, radiolabelled",,tissue uptake,0.14 ± 0.06 %ID/g
COc1ccc([C@@H]2CC(=O)c3c(O)cc(O[C@@H]4O[C@H](CO)[C@@H](O)[C@H](O)[C@H]4O[C@@H]4O[C@@H](C)[C@H](O)[C@@H](O)[C@H]4O)cc3O2)cc1O,,,"male Sprague-Dawley rats, obese, urine","oral, 100 mg/kg, 48 to 36 h, total after deconjugation",,urinary excretion,3.45 ± 1.07 ng
CC(C)N1CCCCC1C(=O)NC(Cc1ccc(-c2ccccc2)cc1)B(O)O (stereo not shown),,,Caco-2,,,Papp A→B,4.6 ×10⁻⁶ cm/s
CCCC[C@H]1C(=O)N(C)[C@@H](CCCC)C(=O)N[C@@H](CCCNC(=O)CN2CCN(CC(=O)O)CCN(CC(=O)O)CCN(CC(=O)O)CC2)C(=O)N[C@H](C(=O)NCC(N)=O)CSCC(=O)N[C@@H](Cc2ccc(O)cc2)C(=O)N(C)[C@@H](C)C(=O)N[C@@H](CC(N)=O)C(=O)N2CCC[C@H]2C(=O)N[C@@H](Cc2c[nH]cn2)C(=O)N[C@@H](CC(C)C)C(=O)N(C)CC(=O)N[C@@H](Cc2c[nH]c3ccccc23)C(=O)N[C@@H](CO)C(=O)N[C@@H](Cc2c[nH]c3ccccc23)C(=O)N1C [gallium-68 labelled],,,"NOD/SCID mice with CHO-hPD-L1 xenograft, intestine",10 min post injection,,tissue uptake,2.65 ± 0.81 %ID/g
CSCC[C@H](N)C(=O)N[C@@H](C)C(=O)N[C@@H](Cc1c[nH]c2ccccc12)C(=O)N[C@@H](Cc1c[nH]cn1)C(=O)N[C@@H](CC(=O)O)C(=O)N[C@@H](CC(=O)O)C(=O)N[C@@H](CCC(=O)O)C(=O)N[C@@H](CCC(=O)O)C(=O)N[C@@H](Cc1ccccc1)C(=O)N[C@@H](C)C(=O)N[C@@H](CCCNC(=N)N)C(=O)N[C@@H](CCCNC(=N)N)C(=O)N[C@@H](CCCNC(=N)N)C(=O)N[C@@H](CCCNC(=N)N)C(=O)NCCCCCC(=O)NCCCCC(NC(=O)CCCCCNC(=O)[C@H](CCCNC(=N)N)NC(=O)[C@H](CCCNC(=N)N)NC(=O)[C@H](CCCNC(=N)N)NC(=O)[C@H](CCCNC(=N)N)NC(=O)[C@H](C)NC(=O)[C@H](Cc1ccccc1)NC(=O)[C@H](CCC(=O)O)NC(=O)[C@H](CCC(=O)O)NC(=O)[C@H](CC(=O)O)NC(=O)[C@H](CC(=O)O)NC(=O)[C@H](Cc1c[nH]cn1)NC(=O)[C@H](Cc1c[nH]c2ccccc12)NC(=O)[C@H](C)NC(=O)[C@@H](N)CCSC)C(=O)NCCCCC(NC(=O)C(CCCCNC(=O)CCCCCNC(=O)[C@H](CCCNC(=N)N)NC(=O)[C@H](CCCNC(=N)N)NC(=O)[C@H](CCCNC(=N)N)NC(=O)[C@H](CCCNC(=N)N)NC(=O)[C@H](C)NC(=O)[C@H](Cc1ccccc1)NC(=O)[C@H](CCC(=O)O)NC(=O)[C@H](CCC(=O)O)NC(=O)[C@H](CC(=O)O)NC(=O)[C@H](CC(=O)O)NC(=O)[C@H](Cc1c[nH]cn1)NC(=O)[C@H](Cc1c[nH]c2ccccc12)NC(=O)[C@H](C)NC(=O)[C@@H](N)CCSC)NC(=O)CCCCCNC(=O)[C@H](CCCNC(=N)N)NC(=O)[C@H](CCCNC(=N)N)NC(=O)[C@H](CCCNC(=N)N)NC(=O)[C@H](CCCNC(=N)N)NC(=O)[C@H](C)NC(=O)[C@H](Cc1ccccc1)NC(=O)[C@H](CCC(=O)O)NC(=O)[C@H](CCC(=O)O)NC(=O)[C@H](CC(=O)O)NC(=O)[C@H](CC(=O)O)NC(=O)[C@H](Cc1c[nH]cn1)NC(=O)[C@H](Cc1c[nH]c2ccccc12)NC(=O)[C@H](C)NC(=O)[C@@H](N)CCSC)C(N)=O (stereo partly shown),,,"C57BL/6 mouse female, femur","dose not given, 3 h",baseline: total,mean tissue distribution,1.59%
O=C(O)CC[C@H](NC(=O)[C@H](CCC(=O)O)NC(=O)[C@H](CCC(=O)O)NC(=O)[C@H](CCC(=O)O)NC(=O)[C@H](CCC(=O)O)NC(=O)CNC(=O)[C@H](CCC(=O)O)NC(=O)CNC(=O)[C@H](CCC(=O)O)NC(=O)[C@@H](Cc1ccccc1)NC(=O)[C@@H](Cc1ccccc1)NC(=O)Cc1ccc2ccccc2c1)C(=O)O,,circular dichroism,PBS,"500 µM, pH 9, above CMC, second peak",,CD negative peak wavelength,212 nm
CC[C@H](C)[C@H](NC(=O)[C@H](CCCCN)NC(=O)CNC(=O)[C@H](CC(C)C)NC(=O)[C@H](Cc1ccccc1)NC(=O)[C@H](CCCCN)NC(=O)[C@H](CO)NC(=O)[C@H](Cc1ccccc1)NC(=O)[C@H](Cc1c[nH]c2ccccc12)NC(=O)[C@H](CCC(N)=O)NC(=O)[C@@H](NC(=O)[C@H](Cc1ccccc1)NC(=O)CCCCCNC(=O)CN1CCN(CC(=O)O)CCN(CC(=O)O)CCN(CC(=O)O)CC1)C(C)C)C(=O)N[C@@H](CCC(=O)O)C(=O)N1CCC[C@H]1C(=O)N[C@@H](CC(=O)O)C(=O)N[C@H](C(=O)N[C@@H](CO)C(=O)N[C@@H](CCC(N)=O)C(=O)N[C@H](C(=O)N[C@@H](CCC(N)=O)C(=O)N[C@@H](CC(=O)O)C(=O)N1CCC[C@H]1C(=O)N[C@@H](CC(N)=O)C(=O)N[C@@H](CC(=O)O)C(=O)N[C@@H](CCC(N)=O)C(=O)N[C@@H](Cc1ccc(O)cc1)C(=O)N[C@@H](CCC(=O)O)C(=O)N1CCC[C@H]1C(=O)N[C@@H](Cc1ccccc1)C(=O)O)C(C)C)C(C)C [copper-64 labelled],,,"C57BL/6 male mouse, tumour-naive, blood",24 h,,tissue uptake,1.15 ± 0.06 %ID/g
CC(C)(C)C(=O)OCOP(=O)(OCOC(=O)C(C)(C)C)C1CCCN(O)C1=O (stereo not shown),SNB-75,,,,,CC50,> 100 µM
COc1ccccc1-c1n[nH]c2nc(NC3CCN(C(=O)Cc4ccc(F)cc4F)CC3)ncc12,,"bead binding, competition bead pull-down, refers to: LINJ.35.5300",Leishmania donovani axenic amastigote extract,10 µM,baseline: vehicle,relative abundance,1.07
CSCC[C@H](NC(=O)CNC(=O)[C@H](CCCCN)NC(=O)[C@H](CC(C)C)NC(=O)[C@@H]1CCCN1C(=O)[C@H](CO)NC(=O)[C@H](Cc1c[nH]cn1)NC(=O)[C@H](Cc1c[nH]c2ccccc12)NC(=O)[C@H](CCCNC(=N)N)NC(=O)[C@H](CC(C)C)NC(=O)[C@H](CCCNC(=N)N)NC(=O)[C@H](Cc1c[nH]c2ccccc12)NC(=O)[C@H](CS)NC(=O)CCCCCNC(=O)CN1CCN(CC(=O)O)CCN(CC(=O)O)CCN(CC(=O)O)CC1)C(=O)O [copper-64 labelled],,,"C57BL/6J mice, B16-F10 tumour, blood","intravenous, 1.85 MBq, 30 h",,tissue uptake,0.96 %ID/g
C#Cc1c(F)ccc2cc(O)cc(-c3ncc4c(N5CC6CCC(C5)N6C(=O)OC(C)OC(=O)CC)nc(OC[C@@]56CCCN5C[C@H](F)C6)nc4c3F)c12 (stereo partly shown),,refers to: prodrug,mouse whole blood,1 µM,,t1/2,5.46 min
CC(CCC(=O)NCC(=O)O)C1CCC2C3CCC4CC(OC5OC(C(=O)O)C(O)C(O)C5O)CCC4(C)C3CC(O)C12C (stereo not shown),,,"men, T/C genotype, plasma","dose not given, geometric mean",,plasma concentration,138 ng/mL
COCC12CCC(OC)C34C5CC6(O)C(OC)C(O)C(O)(C5C6OC(=O)c5ccccc5)C(C(OC)C13)C4N(C)C2 (stereo not shown),,,"Sprague-Dawley rat, plasma","oral, dose not given, in PCW extract",,Tmax,45 min
O=C1NC2(CC2)COc2ncc(F)cc2[C@H]2COCCN2c2ccn3ncc1c3n2,,,"Sprague-Dawley rat, female, brain","oral, 20 mg/kg/day, 4 weeks, end of treatment",,organ-to-body weight ratio,0.609 ± 0.067%
CCc1nn(C)c2nc(-c3ccc(C(=O)O)cc3)nc(NCc3ccccc3)c12,,,"male CD-1 mouse, plasma","intravenous, 1 mg/kg, 2 h",,concentration,159 ng/mL
CC(C)C[C@@H](NC(=O)[C@@H](CCCNC(=N)N)NC(=O)[C@@H](Cc1c[nH]cn1)NC(=O)[C@@H](Cc1c[nH]c2ccccc12)NC(=O)[C@@H](Cc1c[nH]cn1)NC(=O)[C@@H](Cc1ccccc1)NC(=O)[C@H](NC(=O)[C@@H](Cc1ccc(O)cc1)NC(=O)CNC(=O)CNC(=O)CCOCCOCCOCCNC(=O)CN1CCN(CC(=O)O)CCN(CC(=O)O)CC1)[C@H](C)O)C(=O)N[C@H](CC(N)=O)C(=O)N1CCC[C@@H]1C(=O)O [gallium-68 labelled],,OLINDA/EXM,"adult female human, stomach wall",extrapolated from C57BL/6 mice,,organ absorbed dose,0.0125 ± 0.0002 mSv/MBq
